Measured values pooled from the literature.
Protocols differ between the studies behind these lines.
Sequence of UniProt P32238 (whole entry, looked up): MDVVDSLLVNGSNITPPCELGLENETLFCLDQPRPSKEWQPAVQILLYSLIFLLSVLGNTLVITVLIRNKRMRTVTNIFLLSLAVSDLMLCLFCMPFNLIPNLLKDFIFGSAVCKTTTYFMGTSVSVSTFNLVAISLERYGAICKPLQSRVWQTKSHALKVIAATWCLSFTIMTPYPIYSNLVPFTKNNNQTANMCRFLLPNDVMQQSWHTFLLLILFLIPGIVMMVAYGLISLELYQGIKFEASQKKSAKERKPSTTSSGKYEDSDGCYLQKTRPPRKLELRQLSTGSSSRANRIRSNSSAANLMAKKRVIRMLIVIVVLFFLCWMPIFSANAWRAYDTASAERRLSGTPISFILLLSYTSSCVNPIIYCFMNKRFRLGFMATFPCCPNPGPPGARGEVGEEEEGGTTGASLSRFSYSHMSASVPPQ
Sequence of UniProt P27361 (whole entry, looked up): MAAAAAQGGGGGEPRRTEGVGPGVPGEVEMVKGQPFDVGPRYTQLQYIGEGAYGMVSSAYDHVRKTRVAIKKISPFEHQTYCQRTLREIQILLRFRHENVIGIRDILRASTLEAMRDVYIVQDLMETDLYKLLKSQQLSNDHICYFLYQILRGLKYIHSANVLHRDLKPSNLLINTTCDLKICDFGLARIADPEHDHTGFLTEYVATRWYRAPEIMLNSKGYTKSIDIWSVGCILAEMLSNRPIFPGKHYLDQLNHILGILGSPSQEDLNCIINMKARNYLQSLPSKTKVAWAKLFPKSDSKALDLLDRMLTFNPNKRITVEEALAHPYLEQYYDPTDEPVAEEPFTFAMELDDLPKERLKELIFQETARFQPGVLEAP
Sequence of UniProt P23975 (whole entry, looked up): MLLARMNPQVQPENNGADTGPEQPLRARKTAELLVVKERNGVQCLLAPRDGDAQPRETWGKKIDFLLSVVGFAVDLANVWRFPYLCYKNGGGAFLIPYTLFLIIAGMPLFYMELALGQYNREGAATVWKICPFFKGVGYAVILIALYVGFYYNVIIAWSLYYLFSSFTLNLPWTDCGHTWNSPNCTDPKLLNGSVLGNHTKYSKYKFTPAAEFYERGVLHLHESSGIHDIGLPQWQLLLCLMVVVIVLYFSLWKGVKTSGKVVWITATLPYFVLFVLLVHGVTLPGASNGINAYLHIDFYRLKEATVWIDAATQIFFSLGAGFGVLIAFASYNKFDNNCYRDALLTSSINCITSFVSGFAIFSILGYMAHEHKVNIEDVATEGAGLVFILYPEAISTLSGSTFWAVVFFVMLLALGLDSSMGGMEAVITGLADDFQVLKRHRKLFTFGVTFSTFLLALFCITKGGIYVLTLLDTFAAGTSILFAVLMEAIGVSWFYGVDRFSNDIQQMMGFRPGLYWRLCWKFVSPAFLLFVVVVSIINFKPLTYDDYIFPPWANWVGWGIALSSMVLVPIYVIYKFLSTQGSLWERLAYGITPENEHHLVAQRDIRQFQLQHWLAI
Sequence of UniProt Q13555 (whole entry, looked up): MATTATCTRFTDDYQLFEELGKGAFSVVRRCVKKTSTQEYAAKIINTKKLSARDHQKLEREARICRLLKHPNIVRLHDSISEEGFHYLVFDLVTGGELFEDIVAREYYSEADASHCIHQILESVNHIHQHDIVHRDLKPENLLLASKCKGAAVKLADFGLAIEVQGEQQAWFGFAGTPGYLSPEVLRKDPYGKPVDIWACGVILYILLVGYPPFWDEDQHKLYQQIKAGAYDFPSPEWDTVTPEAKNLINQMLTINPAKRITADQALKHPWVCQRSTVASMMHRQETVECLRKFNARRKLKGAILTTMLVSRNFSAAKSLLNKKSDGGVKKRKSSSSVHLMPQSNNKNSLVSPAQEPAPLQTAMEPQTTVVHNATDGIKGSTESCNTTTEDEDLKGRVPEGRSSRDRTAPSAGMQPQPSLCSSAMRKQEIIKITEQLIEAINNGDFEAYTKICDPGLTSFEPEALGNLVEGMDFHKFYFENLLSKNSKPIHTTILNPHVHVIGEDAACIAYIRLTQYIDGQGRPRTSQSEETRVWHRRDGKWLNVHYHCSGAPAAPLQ
Sequence of UniProt Q99640 (whole entry, looked up): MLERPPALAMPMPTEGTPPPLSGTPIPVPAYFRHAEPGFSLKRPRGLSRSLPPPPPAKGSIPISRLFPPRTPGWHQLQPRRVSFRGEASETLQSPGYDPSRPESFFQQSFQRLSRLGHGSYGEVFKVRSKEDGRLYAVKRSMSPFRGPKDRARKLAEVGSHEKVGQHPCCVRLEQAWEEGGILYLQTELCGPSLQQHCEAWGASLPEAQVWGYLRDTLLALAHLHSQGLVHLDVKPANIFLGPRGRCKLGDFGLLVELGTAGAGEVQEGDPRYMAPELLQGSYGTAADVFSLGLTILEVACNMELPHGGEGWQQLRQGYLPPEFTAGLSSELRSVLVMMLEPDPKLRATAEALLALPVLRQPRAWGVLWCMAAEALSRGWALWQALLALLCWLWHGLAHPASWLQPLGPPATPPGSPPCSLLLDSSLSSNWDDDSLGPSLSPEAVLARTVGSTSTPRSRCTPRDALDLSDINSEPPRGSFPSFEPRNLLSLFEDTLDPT
Sequence of UniProt P07949 (whole entry, unmodified, looked up): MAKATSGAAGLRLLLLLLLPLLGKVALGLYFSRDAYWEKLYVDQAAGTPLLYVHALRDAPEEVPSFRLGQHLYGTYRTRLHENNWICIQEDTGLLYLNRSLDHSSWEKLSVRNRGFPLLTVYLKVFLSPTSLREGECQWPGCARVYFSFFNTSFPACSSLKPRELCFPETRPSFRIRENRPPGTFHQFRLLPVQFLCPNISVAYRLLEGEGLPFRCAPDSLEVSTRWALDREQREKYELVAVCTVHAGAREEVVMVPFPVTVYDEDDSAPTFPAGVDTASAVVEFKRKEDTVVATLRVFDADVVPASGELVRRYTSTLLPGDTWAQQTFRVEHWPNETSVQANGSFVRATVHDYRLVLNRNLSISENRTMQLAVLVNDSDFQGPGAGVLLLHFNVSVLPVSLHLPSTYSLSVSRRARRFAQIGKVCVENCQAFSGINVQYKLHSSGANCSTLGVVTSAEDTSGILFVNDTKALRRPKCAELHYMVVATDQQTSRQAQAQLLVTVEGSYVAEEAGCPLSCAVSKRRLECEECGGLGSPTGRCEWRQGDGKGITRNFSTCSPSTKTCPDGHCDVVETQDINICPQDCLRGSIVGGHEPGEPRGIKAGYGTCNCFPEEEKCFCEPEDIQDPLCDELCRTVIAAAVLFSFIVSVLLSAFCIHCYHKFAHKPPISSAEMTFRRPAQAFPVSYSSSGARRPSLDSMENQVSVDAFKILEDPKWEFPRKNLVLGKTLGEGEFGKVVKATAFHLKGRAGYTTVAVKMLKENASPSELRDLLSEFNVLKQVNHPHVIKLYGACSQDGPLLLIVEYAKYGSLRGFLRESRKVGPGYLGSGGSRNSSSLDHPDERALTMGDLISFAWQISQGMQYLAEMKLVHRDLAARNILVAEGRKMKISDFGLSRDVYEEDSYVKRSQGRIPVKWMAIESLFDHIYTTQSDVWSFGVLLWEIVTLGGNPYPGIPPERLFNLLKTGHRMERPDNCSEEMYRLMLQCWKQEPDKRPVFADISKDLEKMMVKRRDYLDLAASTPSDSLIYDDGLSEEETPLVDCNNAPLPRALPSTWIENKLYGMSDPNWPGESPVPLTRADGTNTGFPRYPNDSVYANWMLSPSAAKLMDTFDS
Sequence of UniProt O33336 (whole entry, looked up): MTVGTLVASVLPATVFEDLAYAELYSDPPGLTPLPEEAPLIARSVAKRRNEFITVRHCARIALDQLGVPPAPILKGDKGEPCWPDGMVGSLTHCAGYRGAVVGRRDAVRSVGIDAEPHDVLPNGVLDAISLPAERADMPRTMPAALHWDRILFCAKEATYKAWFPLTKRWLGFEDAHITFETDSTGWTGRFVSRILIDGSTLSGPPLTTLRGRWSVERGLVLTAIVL
Sequence of UniProt O15530 (whole entry, looked up): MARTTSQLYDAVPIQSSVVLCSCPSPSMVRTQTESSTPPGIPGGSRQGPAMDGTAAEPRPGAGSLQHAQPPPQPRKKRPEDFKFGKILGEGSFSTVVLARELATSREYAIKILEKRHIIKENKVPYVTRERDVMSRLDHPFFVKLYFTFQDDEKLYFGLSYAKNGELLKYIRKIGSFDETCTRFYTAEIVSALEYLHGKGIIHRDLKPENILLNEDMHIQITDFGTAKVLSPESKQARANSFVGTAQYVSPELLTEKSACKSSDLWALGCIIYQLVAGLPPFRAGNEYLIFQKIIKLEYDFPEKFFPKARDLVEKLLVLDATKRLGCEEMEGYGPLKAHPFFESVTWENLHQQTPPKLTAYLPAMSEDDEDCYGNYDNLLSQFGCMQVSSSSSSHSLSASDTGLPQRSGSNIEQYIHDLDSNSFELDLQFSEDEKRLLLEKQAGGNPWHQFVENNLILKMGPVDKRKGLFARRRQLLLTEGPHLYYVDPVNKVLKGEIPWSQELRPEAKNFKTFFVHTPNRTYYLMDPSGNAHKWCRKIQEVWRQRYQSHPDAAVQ

| Compound | target | read-out | action | technique | concentration | quantity | value |
| --- | --- | --- | --- | --- | --- | --- | --- |
| Nc1ncc(-c2nc(N3CCOCC3)nc(N3CCOCC3)n2)c(C(F)F)n1 | cAMP-dependent protein kinase catalytic subunit beta (PRKACB, Homo sapiens, UniProt P22694) | binding | – | competition with immobilised ligand | 10 µM | remaining binding | 61% |
| c1cncc([C@@H]2CCCN2)c1 | Sodium-dependent noradrenaline transporter (SLC6A2, Homo sapiens, UniProt P23975) | ligand displacement | – | – | 50 µM | inhibition | 15.6% |
| COc1ncccc1-c1cnn2ccc(N3CCN(C(=O)OC(C)C)CC3)nc12 | Membrane-associated tyrosine- and threonine-specific cdc2-inhibitory kinase (PKMYT1, Homo sapiens, UniProt Q99640) | binding | – | competition with immobilised ligand | 1 µM | remaining binding | 100% |
| C#Cc1n[nH]c2c(-c3cn(C(C)c4ccccn4)c(=O)[nH]c3=O)cc(F)cc12 (stereo not drawn) | Proto-oncogene tyrosine-protein kinase receptor Ret (RET, Homo sapiens, UniProt P07949, V804M) | enzyme activity | inhibitor | – | 1 µM | inhibition | 8.9% |
| CN[C@]1(c2ccccc2Cl)CCCCC1=O | Mitogen-activated protein kinase 3 (MAPK3, Homo sapiens, UniProt P27361) | enzyme activity | inhibitor | – | 30 µM | inhibition | -1% |
| O=C1c2cc(Cl)ccc2NS(=O)(=O)N1Cc1cccnc1 | 4'-phosphopantetheinyl transferase PptT (Mycobacterium tuberculosis, UniProt O33336) | enzyme activity | inhibitor | FP | – | IC50 | > 100 µM |
| Cc1nn(C)cc1-c1nc2c(N3CCN(Cc4ccc(Cl)cc4)CC3)c(Cl)cnc2[nH]1 | Calcium/calmodulin-dependent protein kinase type II subunit gamma (CAMK2G, Homo sapiens, UniProt Q13555) | binding | – | competition with immobilised ligand | 1 µM | remaining binding | 100% |
| CC(C)CC(=O)OC[C@H]1O[C@@](C#N)(c2ccc3c(N)ncnn23)[C@H](O)[C@@H]1O | Cholecystokinin receptor type A (CCKAR, Homo sapiens, UniProt P32238) | enzyme activity | inhibitor | – | 20 µM | inhibition | 0% |
| [2H]c1c([2H])c([C@]2([2H])CCCN2C(=O)C(C)(C)Oc2ccc3cn[nH]c3c2)c([2H])c([2H])c1C([2H])([2H])[2H] | 3-phosphoinositide-dependent protein kinase 1 (PDPK1, Homo sapiens, UniProt O15530) | binding | – | competition with immobilised ligand | 1 µM | remaining binding | 72% |
